# Published values gathered from unrelated publications.
# Lines come from different studies, so protocols differ. Numbers after ± are the reported error.
Compound,tested on,system,conditions,tissue uptake [%ID/g]
[64Cu+2].c1cnc(CNCc2ccc(CN3CCCN4CCNCCCN(CC4)CC3)cc2)nc1,CXCR4,"NOD/SCID mouse, U87 and U87-stb-CXCR4 xenografts, pancreas","iv, 120 min, ex vivo",1.88 ± 0.32
CCCC[C@H](NC(=O)CCCCCCCNC(=O)CN1CCN(CC(=O)O)CCN(CC(=O)O)CC1)C(=O)N[C@H]1CC(=O)NCCCC[C@@H](C(N)=O)NC(=O)[C@H](Cc2c[nH]c3ccccc23)NC(=O)[C@H](CCCNC(=N)N)NC(=O)[C@@H](Cc2ccccc2)NC(=O)[C@H](Cc2c[nH]cn2)NC1=O [copper-64 labelled],,"C57 mice, liver","intravenous, 0.37 MBq, 4 h",0.95 ± 0.21
N=C(N)NCCC[C@@H]1NC(=O)[C@H](CCCCNC(=O)CNC(=O)CNC(=O)CNC(=O)CC[C@H](NC(=O)CNC(=O)CNC(=O)CNC(=O)CC[C@H](NC(=O)CN2CCN(CC(=O)O)CCN(CC(=O)O)CCN(CC(=O)O)CC2)C(=O)NCC(=O)NCC(=O)NCC(=O)N[C@@H](CCC(=O)NCC(=O)NCC(=O)NCC(=O)NCCCC[C@@H]2NC(=O)[C@@H](Cc3ccccc3)NC(=O)[C@H](CC(=O)O)NC(=O)CNC(=O)[C@H](CCCNC(=N)N)NC2=O)C(=O)NCC(=O)NCC(=O)NCC(=O)NCCCC[C@@H]2NC(=O)[C@@H](Cc3ccccc3)NC(=O)[C@H](CC(=O)O)NC(=O)CNC(=O)[C@H](CCCNC(=N)N)NC2=O)C(=O)NCC(=O)NCC(=O)NCC(=O)NCCCC[C@@H]2NC(=O)[C@@H](Cc3ccccc3)NC(=O)[C@H](CC(=O)O)NC(=O)CNC(=O)[C@H](CCCNC(=N)N)NC2=O)NC(=O)[C@@H](Cc2ccccc2)NC(=O)[C@H](CC(=O)O)NC(=O)CNC1=O [indium-111 labelled],,"female athymic nu/nu mice, brain","intravenous, 1 h",0.14 ± 0.03
N=C(N)NCCC[C@@H]1NC(=O)[C@H](CCCCNC(=O)CCOCCOCCOCCOCCNC(=O)CC[C@H](NC(=O)CCOCCOCCOCCOCCNC(=O)CN2CCN(CC(=O)O)CCN(CC(=O)O)CCN(CC(=O)O)CC2)C(=O)NCCOCCOCCOCCOCCC(=O)NCCCC[C@@H]2NC(=O)[C@@H](Cc3ccccc3)NC(=O)[C@H](CC(=O)O)NC(=O)CNC(=O)[C@H](CCCNC(=N)N)NC2=O)NC(=O)[C@@H](Cc2ccccc2)NC(=O)[C@H](CC(=O)O)NC(=O)CNC1=O [copper-64 labelled],,"athymic nu/nu mouse, female, muscle","intravenous, 4 h",0.95 ± 0.34
N=C(N)NCCC[C@@H]1NC(=O)[C@H](CCCCNC(=O)CC[C@H](NC(=O)CC[C@H](NC(=O)CN2CCN(CC(=O)O)CCN(CC(=O)O)CCN(CC(=O)O)CC2)C(=O)N[C@@H](CCC(=O)NCCCC[C@@H]2NC(=O)[C@@H](Cc3ccccc3)NC(=O)[C@H](CC(=O)O)NC(=O)CNC(=O)[C@H](CCCNC(=N)N)NC2=O)C(=O)NCCCC[C@@H]2NC(=O)[C@@H](Cc3ccccc3)NC(=O)[C@H](CC(=O)O)NC(=O)CNC(=O)[C@H](CCCNC(=N)N)NC2=O)C(=O)NCCCC[C@@H]2NC(=O)[C@@H](Cc3ccccc3)NC(=O)[C@H](CC(=O)O)NC(=O)CNC(=O)[C@H](CCCNC(=N)N)NC2=O)NC(=O)[C@@H](Cc2ccccc2)NC(=O)[C@H](CC(=O)O)NC(=O)CNC1=O [indium-111 labelled],,"female athymic nu/nu mice, intestine","intravenous, 0.5 h",10.8 ± 1.46
CCCC[C@H](NC(=O)COCCOCCNC(=O)CN1CCN(CC(=O)O)CCN(CC(=O)O)CC1)C(=O)N[C@H]1CC(=O)NCCCC[C@@H](C(N)=O)NC(=O)[C@H](Cc2c[nH]c3ccccc23)NC(=O)[C@H](CCCNC(=N)N)NC(=O)[C@@H](Cc2ccccc2)NC(=O)[C@H](Cc2c[nH]cn2)NC1=O [copper-64 labelled],,"C57 mice, lung","intravenous, 0.37 MBq, 4 h",0.62 ± 0.18
CC(C)C[C@H](NC(=O)CN1CCN(CC(=O)O)CCN(CC(=O)O)CC1)C(=O)N[C@@H](CC(C)C)C(=O)N[C@@H](CC(C)C)C(=O)N[C@@H](CC(C)C)C(=O)N[C@@H](CCCNC(=N)N)C(=O)N[C@H](C(=O)N[C@@H](CCCCN)C(=O)N[C@@H](CCCNC(=N)N)C(N)=O)C(C)C [copper-64 labelled],,"CD1 mouse, male, pancreas","intravenous, 15 min, blocked, unlabelled peptide 0.1 µmol",1.9 ± 0.2
CC(C)C[C@H](NC(=O)[C@H](Cc1ccc(O)cc1)NC(=O)[C@@H](CCCNC(=N)N)NC(=O)[C@@H](CO)NC(=O)[C@H](Cc1ccccc1)NC(=O)[C@H](CC1CCCCC1)NC(=O)[C@H](CC(=O)O)NC(=O)CN1CCCN2CCN(CCCN(CC(=O)O)CC2)CC1)C(=O)N[C@@H](Cc1c[nH]c2ccccc12)C(=O)N[C@@H](CO)C(=O)O [copper-64 labelled],,"female NMRI nude mice, bone",22 h p.i.,0.8 ± 0.3
CSCC[C@H](NC(=O)[C@H](CC(C)C)NC(=O)[C@H](Cc1c[nH]cn1)NC(=O)CNC(=O)[C@@H](NC(=O)[C@H](C)NC(=O)[C@H](Cc1c[nH]c2ccccc12)NC(=O)[C@H](CCC(N)=O)NC(=O)CCOCCOCCOCCOCCNC(=O)CN1CCN(CC(=O)O)CCN(CC(=O)O)CCN(CC(=O)O)CC1)C(C)C)C(N)=O [indium-111 labelled],,"Swiss nu/nu mouse, male, PC-3 tumour xenograft, colon","intravenous, 10 pmol, 4 h",3.6 ± 0.4

# Some of these lines once more:
Compound,tested on,system,conditions,tissue uptake [%ID/g]
[64Cu+2].c1cnc(CNCc2ccc(CN3CCCN4CCNCCCN(CC4)CC3)cc2)nc1,CXCR4,"NOD/SCID mouse, U87 and U87-stb-CXCR4 xenografts, pancreas","iv, 120 min, ex vivo",1.88 ± 0.32
